{"data": "Measurements gathered from unrelated publications", "note": "Parts stem from different laboratories: compare values within a part only.", "sequence of UniProt Q8IYT8 (whole entry, looked up)": "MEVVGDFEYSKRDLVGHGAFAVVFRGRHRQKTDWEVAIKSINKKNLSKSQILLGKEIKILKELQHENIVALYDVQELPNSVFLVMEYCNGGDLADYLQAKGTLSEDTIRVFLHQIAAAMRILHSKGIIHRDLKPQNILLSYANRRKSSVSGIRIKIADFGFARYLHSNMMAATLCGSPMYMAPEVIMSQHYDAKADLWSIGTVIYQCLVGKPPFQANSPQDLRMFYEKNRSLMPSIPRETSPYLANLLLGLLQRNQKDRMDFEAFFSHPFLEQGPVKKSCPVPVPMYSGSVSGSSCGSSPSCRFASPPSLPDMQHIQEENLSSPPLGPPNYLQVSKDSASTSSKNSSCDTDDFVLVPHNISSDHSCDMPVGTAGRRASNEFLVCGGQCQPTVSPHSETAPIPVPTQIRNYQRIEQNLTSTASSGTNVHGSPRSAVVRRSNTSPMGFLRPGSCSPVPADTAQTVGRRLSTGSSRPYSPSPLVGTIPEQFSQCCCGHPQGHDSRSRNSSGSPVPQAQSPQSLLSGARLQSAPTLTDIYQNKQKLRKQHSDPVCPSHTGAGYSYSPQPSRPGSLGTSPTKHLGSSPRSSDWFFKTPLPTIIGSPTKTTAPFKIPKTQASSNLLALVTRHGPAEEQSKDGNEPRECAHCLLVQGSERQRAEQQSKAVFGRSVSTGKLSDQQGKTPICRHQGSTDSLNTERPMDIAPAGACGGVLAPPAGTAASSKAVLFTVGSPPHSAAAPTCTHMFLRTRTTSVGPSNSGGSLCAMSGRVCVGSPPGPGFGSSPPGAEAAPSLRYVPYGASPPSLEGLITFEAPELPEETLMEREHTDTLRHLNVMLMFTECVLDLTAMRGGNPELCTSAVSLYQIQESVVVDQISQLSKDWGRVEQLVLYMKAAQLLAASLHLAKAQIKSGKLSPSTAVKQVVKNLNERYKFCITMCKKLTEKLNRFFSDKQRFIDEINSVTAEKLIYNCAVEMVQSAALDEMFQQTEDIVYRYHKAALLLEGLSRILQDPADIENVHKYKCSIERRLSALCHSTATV", "sequence of UniProt Q99558 (whole entry, looked up)": "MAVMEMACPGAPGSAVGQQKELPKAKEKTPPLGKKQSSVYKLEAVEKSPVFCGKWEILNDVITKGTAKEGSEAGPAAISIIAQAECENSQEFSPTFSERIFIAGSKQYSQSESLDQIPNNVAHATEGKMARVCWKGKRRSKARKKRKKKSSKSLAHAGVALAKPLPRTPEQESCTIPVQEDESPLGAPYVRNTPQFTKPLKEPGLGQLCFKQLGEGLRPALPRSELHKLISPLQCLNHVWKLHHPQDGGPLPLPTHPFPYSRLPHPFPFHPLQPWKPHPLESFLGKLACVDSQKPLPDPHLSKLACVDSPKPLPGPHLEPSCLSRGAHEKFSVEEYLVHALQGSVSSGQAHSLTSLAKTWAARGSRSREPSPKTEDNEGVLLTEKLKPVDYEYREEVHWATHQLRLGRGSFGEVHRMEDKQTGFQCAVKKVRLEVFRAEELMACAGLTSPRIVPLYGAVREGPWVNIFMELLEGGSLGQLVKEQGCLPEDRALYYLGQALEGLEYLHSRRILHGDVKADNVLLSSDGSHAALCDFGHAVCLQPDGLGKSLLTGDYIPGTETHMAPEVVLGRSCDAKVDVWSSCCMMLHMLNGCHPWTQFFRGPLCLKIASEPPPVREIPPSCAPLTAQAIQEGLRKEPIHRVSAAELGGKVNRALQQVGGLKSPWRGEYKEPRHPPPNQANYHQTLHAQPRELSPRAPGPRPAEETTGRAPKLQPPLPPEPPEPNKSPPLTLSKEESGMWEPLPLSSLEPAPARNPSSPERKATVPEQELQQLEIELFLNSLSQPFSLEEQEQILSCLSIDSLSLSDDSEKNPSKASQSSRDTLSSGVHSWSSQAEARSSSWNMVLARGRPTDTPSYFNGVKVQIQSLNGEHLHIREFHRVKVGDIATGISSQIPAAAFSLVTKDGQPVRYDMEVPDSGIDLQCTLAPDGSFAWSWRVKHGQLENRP", "sequence of UniProt P11362 (whole entry, looked up)": "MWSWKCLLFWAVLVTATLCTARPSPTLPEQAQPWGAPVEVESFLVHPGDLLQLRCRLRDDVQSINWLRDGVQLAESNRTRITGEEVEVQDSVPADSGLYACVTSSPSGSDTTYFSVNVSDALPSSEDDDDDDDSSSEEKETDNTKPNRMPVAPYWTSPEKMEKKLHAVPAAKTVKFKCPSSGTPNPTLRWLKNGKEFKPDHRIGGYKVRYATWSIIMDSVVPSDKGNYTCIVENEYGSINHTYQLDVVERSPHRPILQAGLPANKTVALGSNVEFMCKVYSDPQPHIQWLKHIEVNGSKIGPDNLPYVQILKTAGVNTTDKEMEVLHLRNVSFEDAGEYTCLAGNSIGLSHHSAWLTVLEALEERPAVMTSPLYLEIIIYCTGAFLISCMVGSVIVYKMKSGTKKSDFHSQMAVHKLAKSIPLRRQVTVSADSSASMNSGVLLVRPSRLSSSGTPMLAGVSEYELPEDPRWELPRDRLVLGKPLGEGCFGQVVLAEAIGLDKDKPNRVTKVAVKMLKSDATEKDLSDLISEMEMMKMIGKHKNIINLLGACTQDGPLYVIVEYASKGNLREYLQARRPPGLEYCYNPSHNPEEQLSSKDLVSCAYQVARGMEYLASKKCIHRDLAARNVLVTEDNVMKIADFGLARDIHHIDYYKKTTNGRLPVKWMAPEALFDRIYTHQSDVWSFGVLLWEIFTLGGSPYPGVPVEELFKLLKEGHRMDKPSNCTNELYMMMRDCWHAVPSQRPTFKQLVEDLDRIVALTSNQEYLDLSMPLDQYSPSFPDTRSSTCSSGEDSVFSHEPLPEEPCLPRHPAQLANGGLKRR", "sequence of UniProt P27361 (whole entry, looked up)": "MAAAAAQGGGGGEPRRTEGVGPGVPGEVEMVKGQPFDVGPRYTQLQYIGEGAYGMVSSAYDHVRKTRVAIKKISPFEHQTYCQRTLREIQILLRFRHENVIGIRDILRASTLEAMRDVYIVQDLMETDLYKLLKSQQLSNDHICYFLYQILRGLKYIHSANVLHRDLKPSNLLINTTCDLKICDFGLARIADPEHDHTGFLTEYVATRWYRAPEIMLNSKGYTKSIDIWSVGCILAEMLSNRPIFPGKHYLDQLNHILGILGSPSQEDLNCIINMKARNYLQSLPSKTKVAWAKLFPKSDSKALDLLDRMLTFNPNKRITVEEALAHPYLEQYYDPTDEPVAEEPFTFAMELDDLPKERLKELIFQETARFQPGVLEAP", "sequence of UniProt P52333 (whole entry, looked up)": "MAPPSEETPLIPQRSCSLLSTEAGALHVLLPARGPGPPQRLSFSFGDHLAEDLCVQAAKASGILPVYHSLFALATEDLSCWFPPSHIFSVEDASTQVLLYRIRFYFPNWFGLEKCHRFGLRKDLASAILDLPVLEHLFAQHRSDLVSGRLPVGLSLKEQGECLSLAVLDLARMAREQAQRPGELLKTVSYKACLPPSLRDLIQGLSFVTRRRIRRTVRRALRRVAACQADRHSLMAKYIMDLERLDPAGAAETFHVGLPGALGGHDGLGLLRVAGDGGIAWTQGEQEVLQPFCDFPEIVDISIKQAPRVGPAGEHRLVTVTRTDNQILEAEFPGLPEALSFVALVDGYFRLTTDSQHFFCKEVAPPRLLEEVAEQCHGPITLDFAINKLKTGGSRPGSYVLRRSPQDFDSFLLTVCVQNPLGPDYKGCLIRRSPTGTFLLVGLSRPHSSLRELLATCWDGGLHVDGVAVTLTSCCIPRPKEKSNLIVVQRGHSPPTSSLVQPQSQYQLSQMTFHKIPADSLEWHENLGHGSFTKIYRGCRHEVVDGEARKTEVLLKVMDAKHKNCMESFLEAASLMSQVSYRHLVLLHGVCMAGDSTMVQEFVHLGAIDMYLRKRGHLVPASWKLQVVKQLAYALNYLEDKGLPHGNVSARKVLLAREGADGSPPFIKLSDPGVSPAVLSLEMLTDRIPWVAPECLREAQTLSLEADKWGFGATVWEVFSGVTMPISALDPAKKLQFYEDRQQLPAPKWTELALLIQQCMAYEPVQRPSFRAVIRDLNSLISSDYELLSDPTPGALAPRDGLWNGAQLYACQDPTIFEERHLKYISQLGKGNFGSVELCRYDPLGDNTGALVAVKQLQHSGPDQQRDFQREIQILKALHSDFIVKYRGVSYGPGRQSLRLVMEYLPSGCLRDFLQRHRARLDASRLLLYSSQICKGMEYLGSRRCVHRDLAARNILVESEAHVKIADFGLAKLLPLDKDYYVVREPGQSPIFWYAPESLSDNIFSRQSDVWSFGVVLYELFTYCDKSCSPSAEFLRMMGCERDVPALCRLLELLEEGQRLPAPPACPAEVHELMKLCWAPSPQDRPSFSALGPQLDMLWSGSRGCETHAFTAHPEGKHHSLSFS", "sequence of UniProt P31751 (whole entry, looked up)": "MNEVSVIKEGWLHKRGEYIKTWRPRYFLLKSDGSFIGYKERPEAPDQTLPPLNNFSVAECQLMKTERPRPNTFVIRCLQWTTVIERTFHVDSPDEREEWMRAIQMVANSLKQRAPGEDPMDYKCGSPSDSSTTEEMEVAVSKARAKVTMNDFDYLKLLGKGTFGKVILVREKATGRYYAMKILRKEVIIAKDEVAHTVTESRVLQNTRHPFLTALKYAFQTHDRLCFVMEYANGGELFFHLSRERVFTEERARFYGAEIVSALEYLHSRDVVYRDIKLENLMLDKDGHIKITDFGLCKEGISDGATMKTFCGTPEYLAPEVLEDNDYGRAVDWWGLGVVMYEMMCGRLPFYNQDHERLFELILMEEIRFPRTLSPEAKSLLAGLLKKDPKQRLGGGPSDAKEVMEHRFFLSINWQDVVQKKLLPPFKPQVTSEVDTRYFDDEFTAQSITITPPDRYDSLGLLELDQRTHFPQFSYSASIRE"}
{"data": "Study 1", "host": "human", "medium": "microsomes or S9", "tested at": "2 µM", "time": "0.5 h"}
{"Compound": "Cc1oc(C)c(C(=O)Nc2nnc(C)n2C)c1Br", "remaining compound [%]": 34.4}
{"Compound": "COc1ccc2ccccc2c1-c1cc(CN)on1", "remaining compound [%]": 37.5}
{"Compound": "O=C(CCn1c(Cc2ccccc2F)nc2cc(Cl)c(Cl)cc21)NCCN1CCOCC1", "remaining compound [%]": 1.24}
{"Compound": "CC1CCC(NS(=O)(=O)CC(=O)N(C)Cc2ccccn2)CC1 (stereo not shown)", "remaining compound [%]": 53.9}
{"data": "Study 2", "SMILES": "COc1cc2c(N3CCN(C(=O)Nc4ccc(OC(C)C)cc4)CC3)ncnc2cc1OCCCN1CCCCC1", "observed": "enzyme activity", "mode": "inhibitor", "tested at": "0.5 µM", "baseline": "control"}
{"target": "Tyrosine-protein kinase JAK3 (JAK3, Homo sapiens, UniProt P52333)", "remaining activity [%]": 99.8}
{"target": "Fibroblast growth factor receptor 3 (FGFR3, Homo sapiens, UniProt P22607)", "remaining activity [%]": 93.2}
{"target": "Fibroblast growth factor receptor 1 (FGFR1, Homo sapiens, UniProt P11362)", "remaining activity [%]": 101}
{"target": "Serine/threonine-protein kinase Nek6 (NEK6, Homo sapiens, UniProt Q9HC98)", "remaining activity [%]": 87.4}
{"target": "Activin receptor type-1B (ACVR1B, Homo sapiens, UniProt P36896)", "remaining activity [%]": 101}
{"target": "Dual specificity mitogen-activated protein kinase kinase 2 (MAP2K2, Homo sapiens, UniProt P36507)", "remaining activity [%]": 116}
{"target": "Serine/threonine-protein kinase Nek1 (NEK1, Homo sapiens, UniProt Q96PY6)", "remaining activity [%]": 119}
{"target": "Serine/threonine-protein kinase TAO2 (TAOK2, Homo sapiens, UniProt Q9UL54)", "remaining activity [%]": 102}
{"target": "Mitogen-activated protein kinase kinase kinase 14 (MAP3K14, Homo sapiens, UniProt Q99558)", "remaining activity [%]": 98.6}
{"target": "Mitogen-activated protein kinase 3 (MAPK3, Homo sapiens, UniProt P27361)", "remaining activity [%]": 106}
{"target": "Serine/threonine-protein kinase ULK2 (ULK2, Homo sapiens, UniProt Q8IYT8)", "remaining activity [%]": 100}
{"data": "Study 3", "cell line": "mouse MPNST tumor cells", "technique": "high-content immunofluorescence imaging", "item": "nuclear SOX9", "tested at": "10 µM", "time": "12 h", "setting": "mean of 2 replicates", "baseline": "DMSO control", "reading": "higher = more nuclear SOX9"}
{"Compound": "Nc1nccc(-c2c(-c3ccc(F)cc3)ncn2C2CCN(Cc3ccon3)CC2)n1", "nuclear SOX9 intensity": "91.4 % of DMSO"}
{"Compound": "O=S(=O)(NC1CCNCC1)c1cc(S(=O)(=O)c2ccccc2)ccc1C(F)(F)F", "nuclear SOX9 intensity": "92.8 % of DMSO"}
{"Compound": "CCCCCCCCc1ccc(-c2ccc(C(=O)O)cc2)cc1", "nuclear SOX9 intensity": "106 % of DMSO"}
{"Compound": "Cc1nc(Nc2ncc(C(=O)Nc3c(C)cccc3Cl)s2)cc(N2CCN(CCO)CC2)n1", "nuclear SOX9 intensity": "152 % of DMSO"}
{"Compound": "COc1cnc(NS(=O)(=O)c2ccc(N)cc2)nc1", "nuclear SOX9 intensity": "96.8 % of DMSO"}
{"data": "Study 4", "Structure (SMILES)": "O=C(Nc1cccnn1)N1CC(C/C=C/c2cncc(Oc3ccc(C(F)(F)F)cn3)n2)C1", "tested at": "1 µM"}
{"target": "Casein kinase I isoform delta (CSNK1D, Homo sapiens, UniProt P48730)", "assay": "cell-free assay, competition with immobilised ligand", "remaining binding [%]": 100}
{"target": "Cyclin-dependent kinase 19 (CDK19, Homo sapiens, UniProt Q9BWU1)", "assay": "competition binding", "remaining binding [%]": 84}
{"target": "RAC-beta serine/threonine-protein kinase (AKT2, Homo sapiens, UniProt P31751)", "assay": "cell-free assay, competition with immobilised ligand", "remaining binding [%]": 100}
{"target": "Non-receptor tyrosine-protein kinase TYK2, JH1 (TYK2, Homo sapiens, UniProt P29597)", "assay": "cell-free assay, competition with immobilised ligand", "remaining binding [%]": 82}
{"data": "Other studies, line by line"}
{"Structure (SMILES)": "CCOC(=O)CC(=O)N1CCSC1COc1ccccc1OC (stereo not shown)", "cell line": "HaCaT", "setting": "100 µM, 36 h", "measurement": "viability", "result": "89.7%"}
{"note": "For quick reference, copied from above (study 3):"}
{"Compound": "Nc1nccc(-c2c(-c3ccc(F)cc3)ncn2C2CCN(Cc3ccon3)CC2)n1", "nuclear SOX9 intensity": "91.4 % of DMSO"}
{"Compound": "O=S(=O)(NC1CCNCC1)c1cc(S(=O)(=O)c2ccccc2)ccc1C(F)(F)F", "nuclear SOX9 intensity": "92.8 % of DMSO"}
